# Results from different studies.
# A part holds a random share of what one study measured. Changes are numbered by the printed parent chain.

# Sample 1
# Target: CCND3, cyclin fold, Cln2 fusion (human)
# Technique: yeast growth competition, sequencing
# Matrix: yeast
# Notes: weak parent motif
# Reference: not given
# Reading: higher = stronger binding
# Starting sequence: CDKN1A docking peptide (human); SKACRRLFGPVDS; partner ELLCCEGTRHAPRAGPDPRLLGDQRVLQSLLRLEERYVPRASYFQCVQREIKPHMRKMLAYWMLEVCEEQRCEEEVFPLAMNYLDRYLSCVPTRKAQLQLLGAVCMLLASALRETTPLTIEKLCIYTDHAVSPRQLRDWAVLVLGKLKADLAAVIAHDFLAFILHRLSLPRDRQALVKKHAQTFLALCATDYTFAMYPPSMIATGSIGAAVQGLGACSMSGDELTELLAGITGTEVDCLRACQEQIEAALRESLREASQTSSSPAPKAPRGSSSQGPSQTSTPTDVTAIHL
Substitution,normalised enrichment score
F8A,0.239
L7Q,0.222
F8M,0.00926
C4K,0.283
R5W,0.179
V11I,0.468
G9L,0.431
K2C,-0.0794
A3C,0.484
F8D,0.32
C4A,0.402
L7A,0.168
C4D,0.138
R5L,-0.00854
P10C,0.297
F8K,0.137
V11P,-0.023
R6H,0.136
D12H,0.035
G9K,-0.0437
R6T,0.428
D12G,0.317
L7M,0.552
P10I,0.814
C4V,0.29

# Sample 2
# Target: Interferon regulatory factor 5, full length, phosphomimetic (IRF5, Homo sapiens, UniProt Q13568-2, residues 1-514, S451D/S453D/S456D/S462D)
# Technique: protein-binding microarray
# Molecule type: double-stranded DNA, one strand shown
# Matrix: in vitro
# Tested at: 940 nM top
# Notes: 60-bp whole probe
# With: salmon DNA 0.4 mg/ml
# Reference: random background probes
# Reading: higher = stronger binding
# All sequences stand within: GCCTAGCAC … GTCTTGATTCGCTTGACGCTGCTG
Strand,fitted relative affinity [z-score]
GGGCACGTTGTTTAACTTCTGTGCTAG,-0.162
TTAGGTATCTGTATCGGTTAGTGCTAG,3.93
TTAGGACGGGACTTTCGGTTAGTGCTA,3.02
GAGGGTTTCCTTTCCCTGACGTGCTAG,1.19
GACGATATCAGTTTCGAGATGTGCTAG,3.71
GACGGTCTCCTTATCGTGACGTGCTAG,0.282
GACGATTTCCGGTTTCGAGACGTGCTA,3.32
TTAGGTATTGGTTTCGGTTAGTGCTAG,10.9
GACGGTCTCGGTTTCGGGAAGTGCTAG,6.87
GACGGTTTCGGTTTCGGGAAGTGCTAG,15.1
GACGATATCGCGACTGGAGACGTGCTA,-0.165
TTCGATTTCAGTTCCGATTAGTGCTAG,2.06
GTTTCTCTTTCCTTCTTGATGTGCTAG,4.58
GACGATAGCGGGTTTCGAGACGTGCTA,2.03
TTAGATATCCGTCTCGATTAGTGCTAG,1.45
GAAAATTAGTGTTTTGCCCTGTGCTAG,-0.254
GATGGACTGCTTATCCTGACGTGCTAG,-0.0946
GACCAACTGAGTCTCGAGACGTGCTAG,0.996
GACGGTATCGGGTTTCGAGACGTGCTA,5.37

# Sample 3
# Target: Histone acetyltransferase KAT6A, winged helix 2, GST fusion (KAT6A, Homo sapiens, UniProt Q92794, residues 85-181)
# Technique: protein binding microarray
# Molecule type: double-stranded DNA, one strand shown
# Matrix: in vitro
# Tested at: not given
# Notes: 8-mer, flanks averaged, mean of 2 arrays, mostly near background
# Reference: not given
# Reading: higher = stronger binding
# Target sequence (chain): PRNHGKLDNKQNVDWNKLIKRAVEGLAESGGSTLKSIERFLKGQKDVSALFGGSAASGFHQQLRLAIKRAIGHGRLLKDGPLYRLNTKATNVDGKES
Strand,E-score
GCAGGCAA,0.175
AGACGATC,-0.278
AATGAATA,-0.194
ACCAGGGT,-0.0692
CCGGGCAG,0.0725
GGAAGGCC,-0.0408
AACTGACG,-0.0264
GACGGTGC,0.0369
CCCTACGA,-0.157
GCATAAGC,0.0896
AGGCAGGC,0.14
GACGGGCA,0.123
GATACAAA,0.117
CCTCCAGC,0.00732
AAGGACGT,-0.113
ATCAATTG,0.114
ATAAGAGG,-0.0179
CCTTCTCG,-0.0384
ACATTCTC,-0.11
CGTTGTAA,-0.0678
ACCTTCCT,-0.218
ACCTATCA,-0.143
CGGAACAC,0.0196

# Sample 4
# Target: Prothrombin, mature alpha-thrombin (F2, Homo sapiens, UniProt P00734)
# Technique: aptamer microarray, sandwich
# Molecule type: DNA with 2'F-ANA
# Matrix: in vitro
# Tested at: 200 nM
# Notes: whole 15-mer aptamer, many near background
# With: Cy3 exosite-II aptamer, 400 nM
# Reading: higher = stronger binding
# Strand: GGTTGGTGTGGTTGG
Modification,mean fluorescence intensity
2'F-ANA at 1 4 5 6 7 14,50.6 a.u.
2'F-ANA at 2 4 5 6 8 11 15,59.8 a.u.
2'F-ANA at 1 3 4 5 6 7 8 9 10 13 14,59.3 a.u.
2'F-ANA at 1 8 10 13 14 15,49.2 a.u.
2'F-ANA at 5 6 7 12 13,111 a.u.
2'F-ANA at 4 6 7 8 9 12 14 15,107 a.u.
2'F-ANA at 7 9 10 11 12 13,182 a.u.
2'F-ANA at 1 4 6 8 11 12 14,67.5 a.u.
2'F-ANA at 3 7 10 13 14 15,432 a.u.
2'F-ANA at 2 3 6 13 14,379 a.u.
2'F-ANA at 1 2 3 4 9 14,78.5 a.u.
2'F-ANA at 1 8 9 11 13 14 15,54.1 a.u.
2'F-ANA at 3 4 6 7 10 11 12 13 14,173 a.u.
2'F-ANA at 1 4 7 10 11 13,46 a.u.
2'F-ANA at 1 4 5 6 7 8 10 11 12 13,50 a.u.
2'F-ANA at 1 2 3 5 8 10 11 12 13 15,55 a.u.
2'F-ANA at 3 6 8 10 11 14,387 a.u.
2'F-ANA at 1 5 9 13 15,69.6 a.u.
2'F-ANA at 1 2 4 7 8 10 12 13 14 15,47.3 a.u.
2'F-ANA at 1 2 3 4 5 10 15,50.3 a.u.
2'F-ANA at 1 3 4 7 9 10,70 a.u.
2'F-ANA at 3 4 6 7 9 15,531 a.u.
2'F-ANA at 1 2 4 5 6,55.7 a.u.
2'F-ANA at 1 2 3 4 11 12,309 a.u.
2'F-ANA at 1 3 5 9 10 11 12 14,70.3 a.u.

# Mixed results
Molecule,target,test,system,conditions,scale,quantity,value
"PhoQ, residues 284 288 289 292 302 303 SLSVQF","PhoP, residues 12 14 15 18 19 SQCLL (Escherichia coli, UniProt P23836)","Sort-seq, item: YFP reporter",E. coli,"PhoQ-PhoP variant library, with: 10 µM Mg2+","reference: high Mg2+ state, higher = stronger signaling",fold induction,64

# For quick reference, copied from above (sample 1):
Substitution,normalised enrichment score
F8M,0.00926
V11P,-0.023
F8K,0.137
D12H,0.035
P10C,0.297
G9L,0.431
V11I,0.468
R6T,0.428
C4A,0.402
R5W,0.179
C4D,0.138
R5L,-0.00854
L7M,0.552
L7Q,0.222
